Assay results collected from several papers.
Protocols differ between the studies behind these lines. Numbers after ± are the reported error.
Chain of UniProt P49327 (whole entry, looked up): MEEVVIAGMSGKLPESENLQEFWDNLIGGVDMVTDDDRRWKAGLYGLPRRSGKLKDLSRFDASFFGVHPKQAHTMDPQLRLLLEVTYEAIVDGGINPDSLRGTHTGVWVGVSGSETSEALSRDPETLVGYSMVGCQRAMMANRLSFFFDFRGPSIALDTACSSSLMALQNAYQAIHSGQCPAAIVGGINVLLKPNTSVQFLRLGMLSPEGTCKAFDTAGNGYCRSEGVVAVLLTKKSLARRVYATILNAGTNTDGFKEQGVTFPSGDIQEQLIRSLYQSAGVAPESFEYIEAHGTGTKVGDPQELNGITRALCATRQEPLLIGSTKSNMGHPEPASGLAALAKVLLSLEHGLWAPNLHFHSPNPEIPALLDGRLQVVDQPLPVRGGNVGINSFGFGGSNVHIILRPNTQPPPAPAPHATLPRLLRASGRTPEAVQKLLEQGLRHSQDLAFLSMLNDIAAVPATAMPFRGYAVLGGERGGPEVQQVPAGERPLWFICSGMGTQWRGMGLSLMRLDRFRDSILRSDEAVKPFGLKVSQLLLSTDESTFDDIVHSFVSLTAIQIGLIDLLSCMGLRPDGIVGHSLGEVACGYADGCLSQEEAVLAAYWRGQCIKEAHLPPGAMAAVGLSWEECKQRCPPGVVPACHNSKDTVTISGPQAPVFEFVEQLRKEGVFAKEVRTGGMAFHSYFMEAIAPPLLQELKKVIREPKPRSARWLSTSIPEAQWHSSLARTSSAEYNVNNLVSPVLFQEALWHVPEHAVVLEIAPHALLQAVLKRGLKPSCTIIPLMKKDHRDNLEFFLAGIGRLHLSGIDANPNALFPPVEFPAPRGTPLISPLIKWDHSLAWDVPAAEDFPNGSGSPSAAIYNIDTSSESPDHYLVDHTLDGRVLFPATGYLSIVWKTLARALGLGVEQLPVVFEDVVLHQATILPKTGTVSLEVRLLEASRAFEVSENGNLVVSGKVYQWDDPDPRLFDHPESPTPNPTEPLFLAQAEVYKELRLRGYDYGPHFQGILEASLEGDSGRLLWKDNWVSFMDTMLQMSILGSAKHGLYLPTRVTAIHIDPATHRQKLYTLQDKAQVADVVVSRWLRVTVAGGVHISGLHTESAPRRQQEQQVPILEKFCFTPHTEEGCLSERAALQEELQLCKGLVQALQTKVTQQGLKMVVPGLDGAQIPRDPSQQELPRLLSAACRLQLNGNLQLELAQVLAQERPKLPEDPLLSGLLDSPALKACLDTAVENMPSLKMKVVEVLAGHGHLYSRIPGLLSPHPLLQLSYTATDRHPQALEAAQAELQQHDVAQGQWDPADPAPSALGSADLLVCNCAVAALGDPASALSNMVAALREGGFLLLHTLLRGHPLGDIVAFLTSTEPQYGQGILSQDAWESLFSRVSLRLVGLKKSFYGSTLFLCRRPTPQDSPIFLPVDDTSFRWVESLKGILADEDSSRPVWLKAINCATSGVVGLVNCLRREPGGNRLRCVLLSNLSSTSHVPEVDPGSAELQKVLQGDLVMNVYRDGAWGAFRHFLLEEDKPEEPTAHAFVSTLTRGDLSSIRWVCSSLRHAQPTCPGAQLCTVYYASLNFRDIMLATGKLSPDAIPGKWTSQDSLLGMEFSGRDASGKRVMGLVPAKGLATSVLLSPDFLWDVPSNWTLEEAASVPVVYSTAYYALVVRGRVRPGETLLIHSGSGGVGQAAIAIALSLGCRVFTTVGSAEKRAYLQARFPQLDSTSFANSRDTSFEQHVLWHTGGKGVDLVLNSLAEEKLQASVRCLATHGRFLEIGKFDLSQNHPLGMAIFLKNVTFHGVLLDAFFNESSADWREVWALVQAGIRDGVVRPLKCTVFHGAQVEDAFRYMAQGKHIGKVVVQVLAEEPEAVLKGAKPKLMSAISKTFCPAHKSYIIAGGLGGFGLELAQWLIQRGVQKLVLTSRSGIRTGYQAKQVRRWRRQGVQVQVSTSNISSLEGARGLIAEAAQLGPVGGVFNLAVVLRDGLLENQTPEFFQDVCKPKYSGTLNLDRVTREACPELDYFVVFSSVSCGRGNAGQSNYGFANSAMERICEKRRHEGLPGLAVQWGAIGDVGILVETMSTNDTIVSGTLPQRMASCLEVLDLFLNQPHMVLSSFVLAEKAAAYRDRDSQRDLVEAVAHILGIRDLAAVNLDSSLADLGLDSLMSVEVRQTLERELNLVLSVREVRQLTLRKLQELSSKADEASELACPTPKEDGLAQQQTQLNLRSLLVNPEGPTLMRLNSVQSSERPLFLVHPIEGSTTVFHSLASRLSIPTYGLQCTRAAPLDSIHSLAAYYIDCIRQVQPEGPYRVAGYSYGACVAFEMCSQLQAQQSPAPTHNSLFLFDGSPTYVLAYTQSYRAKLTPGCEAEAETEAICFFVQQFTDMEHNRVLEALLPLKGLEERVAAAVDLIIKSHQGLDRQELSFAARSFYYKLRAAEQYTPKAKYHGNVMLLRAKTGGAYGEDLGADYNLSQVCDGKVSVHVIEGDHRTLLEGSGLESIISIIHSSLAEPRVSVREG

| SMILES | tested on | test | test system | setting | how to read | measurement | result |
| --- | --- | --- | --- | --- | --- | --- | --- |
| CCN(CC)C(=O)[C@@H]1C=C2c3cccc4[nH]cc(c34)C[C@H]2N(C)C1 |  | item: tendency to cry | healthy volunteers | dose not given, 0 to 12 h | relative to: placebo, direction not given | List of Complaints score | 0 |
| CN1[C@H]2CC[C@@H]1[C@@H](C(=O)O)[C@@H](OC(=O)c1ccccc1)C2 |  | LC-MS/MS | Sprague-Dawley rat, whole blood | intraperitoneal, 20 mg/kg of cocaine |  | AUC(0-inf) | 9.75 ± 0.54 µg·h/mL |
| COc1ccc2c(c1)[C@]13CCCC[C@@H]1[C@H](C2)N(C)CC3 |  | item: compound over dextrorphan molar | human, urine | oral, dose not given, added: upadacitinib once daily | relative to: with over without upadacitinib | urinary metabolic ratio | 0.78 |
| C/C=C1/CN2CC[C@]34C(=C(C(=O)OC)[C@H]1C[C@H]23)Nc1ccc(Br)cc14 |  |  | CD-1 mouse | subcutaneous, 10 mg/kg, 10 min | relative to: baseline | rotarod latency | ~30% |
| CN1CCCC2(C1)CN(Cc1cccnc1)c1ccc(C(=O)NCC3CCCCC3)cc12 (stereo not shown) | Vero-E6 | CellTiter-Glo ATP |  | 72 h, second round 5-point | relative to: DMSO 0%, hyamine -100%, more negative, more toxic | maximum response | 10.6% |
| CCC(CC)COC(=O)[C@H](C)N[P@](=O)(OC[C@H]1O[C@@](C#N)(c2ccc3c(N)ncnn23)[C@H](O)[C@@H]1O)Oc1ccccc1 |  |  | human | intravenous, dose not given |  | participants with drug-related adverse events | 5.1% |
| CN(C)C[C@H]1CCCC[C@]1(O)c1cccc(O)c1 |  | joint PK model | human | dose not given, two-compartment metabolite model |  | metabolite central volume | 43.1 L |
| CCCC(C(=O)c1ccc2c(c1)OCO2)N1CCCC1.Cl (racemic) |  | LC-MS/MS | rat, trunk blood plasma | subcutaneous, 2 mg/kg, 240 min |  | plasma concentration | 0.0188 ± 0.003 µg/mL |
| CN1CC[C@]23c4c5ccc(O)c4O[C@H]2[C@@H](O[C@@H]2O[C@H](C(=O)O)[C@@H](O)[C@H](O)[C@H]2O)C=C[C@H]3[C@H]1C5 |  | LC-MS/MS | male Sprague-Dawley rat, whole blood | intraperitoneal, 10 mg/kg of heroin |  | AUC(0-inf) | 0.012 ± 0.00317 µg·h/mL |
| Cc1ncc2n1-c1ccc(Cl)cc1C(c1ccccc1F)=NC2 |  |  | wild-type mice, plasma | intravenous, 0.3 mg/kg, added: 3-day PB, BC 500 mg/kg and PCN 10 mg/kg |  | half-life | 0.445 ± 0.197 h |
| COc1ccc2c3c1O[C@H]1[C@@H](O)CC[C@@]4(O)[C@@H](C2)N(C)CC[C@]314 |  | pH-potentiometric titration |  |  | relative to: O-methyl derivative | Δlog K, 14-hydroxylation effect | 0.5 log units |
| OCc1ncc2n1-c1ccc(Cl)cc1C(c1ccccc1F)=NC2 |  |  | human, plasma | oral, 7.5 mg of midazolam, day 1, geometric mean, no amenamevir |  | AUC(0-t) | 0.044 µg·h/mL |
| CCCN(CCC)CCCNC(=O)C1CCCN(Cc2nc(-c3ccc(Cl)cc3)oc2C)C1 (stereo not shown) | Vero-E6 | CellTiter-Glo ATP |  | 72 h, retest 8-point duplicates | relative to: DMSO 0%, hyamine -100%, more negative, more toxic | maximum response | -16.5% |
| CCCC(C(=O)c1ccc(O)c(OC)c1)N1CCCC1 (stereo not shown) |  | LC-MS/MS | rat, trunk blood plasma | subcutaneous, 1 mg/kg MDPV, 240 min |  | plasma concentration | 0.0411 ± 0.0029 µg/mL |
| COc1ccc2c3c1O[C@H]1[C@@H](O)CC[C@H]4[C@@H](C2)N(C)CC[C@@]341 |  | pH-potentiometric titration |  |  | relative to: O-methyl derivative | Δlog K, saturation effect | 0.68 log units |
| C#Cc1ccc2c(c1)C(c1ccccn1)=NCc1c(-c3cnco3)ncn1-2 |  |  | Sprague-Dawley rat hepatocytes | 2 µM, 4 h, 37 °C |  | metabolite peak area share | 81.5% |
| COc1cccc(C2(O)CCCCC2CN(C)C)c1 (stereo not shown) |  | joint PK model | human, whole blood | oral, one-compartment metabolite model |  | Kt | 0.0433 L/h |
| Cc1ncc(OC[C@@]2(c3cccc(F)c3)C[C@H]2C(=O)Nc2ccc(F)cn2)c(C)n1 |  | population PK base model | human, plasma | oral |  | V4/F | 845 L |
| Cc1ncc2n1-c1ccc(Cl)cc1C(c1ccccc1F)=NC2 |  |  | healthy volunteers, plasma | oral, 5 mg single dose, day 1, given alone |  | Tmax | 2 h |
| CN1CC[C@]23c4c5ccc(O[C@@H]6O[C@H](C(=O)O)[C@@H](O)[C@H](O)[C@H]6O)c4O[C@H]2[C@@H](O)C=C[C@H]3[C@H]1C5 |  |  | Sprague-Dawley rat, whole blood | intraperitoneal, 10 mg/kg heroin, single heroin dose alone |  | AUC(0-inf) | 5.19 ± 1.01 µg·h/mL |
| O=C1c2c(O)c(=O)ccn2N([C@@H]2c3ccccc3SCc3c2ccc(F)c3F)[C@@H]2COCCN12 |  |  | BALB/c mouse | subcutaneous, 0.25 mg/kg q12h |  | trough concentration | 1.12 ng/mL |
| CN1COCN(Cc2cnc(Cl)s2)/C1=N\[N+](=O)[O-] |  |  | soil | 56 days, nominal 10 |  | recovery | 72% |
| CN1CC[C@@H](c2c(O)cc(O)c3c(=O)cc(-c4ccc(C(F)(F)F)cc4Cl)oc23)[C@@H]1CO |  | item: Hypertension | B-cell malignancies | oral, 100 mg, intermittent dosing |  | patients with adverse event | 0% |
| CCOC(=O)Nc1ccc(NCc2ccc(F)cc2)cc1N |  | rotarod test | mouse, CCI neuropathic pain model | 10 mg/kg |  | time to first slip | 0.83 ± 0.08 min |
| CCCC(C(=O)c1ccc(O)c(O)c1)N1CCCC1 (stereo not shown) |  | LC-MS/MS | rat, trunk blood plasma | subcutaneous, 2 mg/kg MDPV, 40 min |  | plasma concentration | 0.0506 ± 0.007 µg/mL |
| CN/C(=N\[N+](=O)[O-])NCc1cnc(Cl)s1 |  |  | soil | 28 days, nominal 0.37 |  | recovery | 46% |
| O=C(O)CCC(CP(=O)(O)O)C(=O)O (stereo not shown) |  |  | Wistar rat, male, plasma | ip, 100 mg/kg |  | CL/F | 0.476 L/h/kg |
| C[C@H]1CN(c2n[nH]c3nc(N[C@H]4CC[C@H](NS(=O)(=O)CCC(F)(F)F)CC4)ncc23)CCO1 | Fatty acid synthase (FASN, Homo sapiens, UniProt P49327) | inhibitor, Kinobeads competition profiling |  | 0.8 µM | relative to: vehicle | relative abundance | 1.23 |

Excerpt of the above:
| SMILES | tested on | test | test system | setting | how to read | measurement | result |
| --- | --- | --- | --- | --- | --- | --- | --- |
| C[C@H]1CN(c2n[nH]c3nc(N[C@H]4CC[C@H](NS(=O)(=O)CCC(F)(F)F)CC4)ncc23)CCO1 | Fatty acid synthase (FASN, Homo sapiens, UniProt P49327) | inhibitor, Kinobeads competition profiling |  | 0.8 µM | relative to: vehicle | relative abundance | 1.23 |
| Cc1ncc2n1-c1ccc(Cl)cc1C(c1ccccc1F)=NC2 |  |  | healthy volunteers, plasma | oral, 5 mg single dose, day 1, given alone |  | Tmax | 2 h |
